Results of several laboratories.
A part holds a random share of what one study measured. Several values in a cell are separate wells, animals, samples, runs or records.

Block 1
Organism: Sarcocystis neurona
Effect on: parasite growth
Concentration: 10 µM
SMILES	inhibition
CC(c1cc2ccccc2s1)N(O)C(N)=O (stereo not drawn)	-51.6%
CC(C)(C)NC(=O)[C@H]1CC[C@H]2[C@@H]3CC[C@H]4NC(=O)C=C[C@]4(C)[C@H]3CC[C@]12C	25.5%
CCn1cc(C(=O)O)c(=O)c2ccc(C)nc21	-23.8%
N[C@@H](Cc1cc(I)c(Oc2cc(I)c(O)c(I)c2)c(I)c1)C(=O)O	-36.8%
COc1ccnc(C[S+]([O-])c2nc3ccc(OC(F)F)cc3[nH]2)c1OC (stereo not drawn)	-50.6%
COC(=O)C1=C(C)NC(C)=C(C(=O)OCCN(C)Cc2ccccc2)C1c1cccc([N+](=O)[O-])c1 (stereo not drawn)	-32.1%
CC(=O)OCC(=O)[C@@]12OC(C)(C)O[C@@H]1C[C@H]1[C@@H]3C[C@H](F)C4=CC(=O)C=C[C@]4(C)[C@@]3(F)[C@@H](O)C[C@@]12C	-35.3%
O=C(CCCN1CCC(O)(c2ccc(Cl)cc2)CC1)c1ccc(F)cc1	14.7%

Block 2
Structure (SMILES): CCN(c1nc(N)c(C(=O)N=C(N)N)nc1Cl)C(C)C
Effect on: β-arrestin recruitment
Mode: agonist
Technique: PRESTO-Tango
Concentration: 10 µM
Baseline: untreated
target	fold over basal
Mas-related G-protein coupled receptor member X4 (Homo sapiens, UniProt Q96LA9)	1.92
5-hydroxytryptamine receptor 5A (HTR5A, Homo sapiens, UniProt P47898)	0.91
Probable G-protein coupled receptor 160 (GPR160, Homo sapiens, UniProt Q9UJ42)	0.83
Hydroxycarboxylic acid receptor 3 (HCAR3, Homo sapiens, UniProt P49019)	1.3 fold
C-C chemokine receptor type 1 (CCR1, Homo sapiens, UniProt P32246)	0.56
C-X-C chemokine receptor type 1 (CXCR1, Homo sapiens, UniProt P25024)	1.02
Muscarinic acetylcholine receptor M4 (CHRM4, Homo sapiens, UniProt P08173)	0.73

Block 3
Target: Cyclin-dependent kinase 7 (CDK7, Homo sapiens, UniProt P50613)
Effect on: enzyme activity
Mode: inhibitor
Concentration: 0.5 µM
Baseline: control
SMILES	remaining activity
FC(F)(F)c1ccc(/C=C/c2nc(COc3ccc(CCCCn4ccnn4)cc3)co2)cc1	107%
O=C1Cc2c([nH]c3ccc(Br)cc23)-c2ccccc2N1	95.1%
O=c1cc(N2CCOCC2)oc2c(-c3ccccc3)cccc12	95.4%
NC(=O)c1ccc(-c2nc(-c3ccc4c(c3)OCCO4)c(-c3ccccn3)[nH]2)cc1	97.6%
CCCNC(=O)Nc1ccc(Oc2ncnc3cc(OC)c(OC)cc23)cc1Cl	118%
Oc1cccc(-c2nc(N3CCOCC3)c3oc4ncccc4c3n2)c1	99.9%
O=C1c2ccccc2-c2nc3nnnn3nc21	94.1%
c1ccc(-c2n[nH]c3c2oc2ccccc23)cc1	101%
COc1cc2c(Nc3ccc(Br)cc3F)ncnc2cc1OCC1CCN(C)CC1	102%
c1cc(-c2cnn3cc(-c4ccc(OCCN5CCCCC5)cc4)cnc23)ccn1	83.7%
O=Nc1c(-c2c(O)[nH]c3ccccc23)[nH]c2ccccc12	89.9%
C[C@@H](N)[C@H]1CC[C@H](C(=O)Nc2ccncc2)CC1	97.9%
O=C1NC(=O)c2c1c1c3ccccc3[nH]c1c1[nH]c3cc(Br)ccc3c21	93.1%
O=C1NC(=O)c2c1c1c3ccccc3[nH]c1n1cncc21	92.3%
NC(=O)c1cccc(-c2cc(Nc3ccc(OC(F)(F)F)cc3)ncn2)c1	104%
CC(C)n1cnc2c(Nc3cccc(Cl)c3)nc(NCCO)nc21	78.5%
CNc1cc2c(Nc3cccc(Br)c3)ncnc2cn1	102%
CCCCc1c(-c2ccc(O)cc2)[nH]c2nccnc12	88.2%
CCN(CC)CCCCN1c2ccccc2Oc2ccc(Cl)cc21	99%
COc1cccc(-c2cc(=O)c3ccccc3o2)c1N	99.9%
Nc1nc(Nc2ccc(S(N)(=O)=O)cc2)nn1C(=S)Nc1c(F)cccc1F	43.6%
COc1ccc(COc2ccc(Cc3cnc(N)nc3N)cc2OC)cc1	100%
COc1cc2c(N3CCN(C(=O)Nc4ccc(OC(C)C)cc4)CC3)ncnc2cc1OCCCN1CCCCC1	109%
CN(C)S(=O)(=O)c1ccc2c(c1)/C(=C/c1cc3c([nH]1)CCCC3)C(=O)N2	76.4%
O=C(O)/C=C/c1cc(Br)c(Br)c(Br)c1Br	88.6%

Block 4
SMILES: C[C@@H]1CN(c2ccc(-c3cc(C(=O)NCCOCCOCCOCCOCCOCCOCCNC(=O)/C=C/c4[nH]cc(C(=O)N[C@@H](CC(N)=O)c5ccc(F)c(Cl)c5)c4-c4ccc(Cl)cc4F)ccc3F)cc2NC(=O)c2ccc(F)cc2C(F)(F)F)C[C@H](C)N1C
Mode: degrader
Time: 24 h
WDR5/DCAF1: WDR5/DCAF1 (Homo sapiens, UniProt P61964+Q9Y4B6)
WDR5: WD repeat-containing protein 5 (WDR5, Homo sapiens, UniProt P61964)
target	technique	item	concentration	baseline	remaining protein level
WDR5/DCAF1	HiBiT luminescence	–	88.1 nM	–	81.1% and 75.4% and 68.8%
WDR5/DCAF1	HiBiT luminescence	–	10000 nM	–	74.9% and 71.9% and 70.1%
WDR5/DCAF1	HiBiT luminescence	–	3800 nM	–	68.3% and 68% and 60.9%
WDR5/DCAF1	HiBiT luminescence	–	13.3 nM	–	85.3% and 92% and 82.2%
WDR5	Jess capillary immunoassay	WDR5 over vinculin	4.69 nM	DMSO	102% and 107% and 98.4%
WDR5	Jess capillary immunoassay	WDR5 over vinculin	60.3 nM	DMSO	88.7% and 87.8% and 93%

Block 5
SMILES: CS(=O)(=O)N1CCCC(NC(=O)[C@H](CCC2CCCCC2)NC(=O)c2ccc(CNc3ncnc4c3nnn4-c3ccccc3)cc2)C1 (stereo partly drawn)
Effect on: cell-free assay
Technique: competition with immobilised ligand
Concentration: 0.1 µM
target	remaining binding [%]
Cyclin-dependent kinase-like 3 (CDKL3, Homo sapiens, UniProt Q8IVW4)	96
Atypical kinase COQ8A, mitochondrial (COQ8A, Homo sapiens, UniProt Q8NI60)	97
Ribosomal protein S6 kinase beta-1 (RPS6KB1, Homo sapiens, UniProt P23443)	100
Cyclin-dependent kinase 16 (CDK16, Homo sapiens, UniProt Q00536)	100
Casein kinase I isoform alpha-like (CSNK1A1L, Homo sapiens, UniProt Q8N752)	100
Serine/threonine-protein kinase D2 (PRKD2, Homo sapiens, UniProt Q9BZL6)	92
Tyrosine-protein kinase ABL1, phosphorylated (ABL1, Homo sapiens, UniProt P00519)	82
Hepatocyte growth factor receptor (MET, Homo sapiens, UniProt P08581, M1250T)	87

Excerpt of the above (block 4):
target	technique	item	concentration	baseline	remaining protein level
WDR5/DCAF1	HiBiT luminescence	–	88.1 nM	–	81.1% and 75.4% and 68.8%
WDR5/DCAF1	HiBiT luminescence	–	10000 nM	–	74.9% and 71.9% and 70.1%
WDR5/DCAF1	HiBiT luminescence	–	3800 nM	–	68.3% and 68% and 60.9%
WDR5/DCAF1	HiBiT luminescence	–	13.3 nM	–	85.3% and 92% and 82.2%
